Published values gathered from unrelated publications.
Protocols differ between the studies behind these lines.
Target: Mitogen-activated protein kinase 7 (MAPK7, Homo sapiens, UniProt Q13164)

COc1c(Cl)cccc1Nc1c(-c2ccncc2C#C[C@@]2(C)CCCN2C(=O)/C=C/CN(C)C)[nH]c2c1C(=O)NCC2 — remaining binding (binding, competition with immobilised ligand; 3 µM): 97%
Cc1cnc2nc1Nc1cccc(c1)COC/C=C/COCc1cc(ccc1OCCN1CCOCC1)N2 — remaining binding (binding, competition with immobilised ligand; 0.1 µM): 99%
Nc1ncc2c(n1)-c1c([nH]c3ccc(C4=CCOCC4)cc13)CCC2 — remaining binding (binding, competition with immobilised ligand; 1 µM): 79%
C=CC(=O)N1CCc2ccc(-n3c(=O)ccc4cnc5ccc(-c6cnn(C)c6)cc5c43)cc21 — remaining binding (KINOMEscan; 1 µM; baseline: DMSO control): 100%
CCn1cc(C(=O)O)c(=O)c2c(N)c(F)c(NC3CCCCC3)cc21 — inhibition (kinase activity; 0.1 µM, added: ATP at Km): 6.6%
C=CC(=O)N1CCCC(n2c(=O)c3ncccc3n(Cc3ccc(Oc4ccccc4)cc3)c2=O)C1 (stereo not drawn) — remaining binding (cell-free assay, competition with immobilised ligand; 1 µM): 55%
CC(C)=CC1OC(C)(C)C2C=C3C(=O)C(Cl)=CC(O)C3C3C(O)C4OC4C(=O)C132 (stereo not drawn) — remaining binding (cell-free assay, competition with immobilised ligand; 10 µM): 75%
CCN1CCN(Cc2ccc(C(=O)Nc3ccc(C)c(NCc4cnc5[nH]ccc5c4OC)c3)cc2C(F)(F)F)CC1 — remaining binding (binding, competition with immobilised ligand; 1 µM): 100%
CN1CCN(Cc2ccc(-c3ccc(CO[C@H]4CCC[C@@H]4NC(=O)c4cc(-c5cnn(C)c5)cnc4N)cc3)cc2)CC1 — inhibition (enzyme activity, inhibitor; 0.1 µM): 10%
Cc1ccc(-c2c(/C=C(\C#N)C(=O)NC(C)C)n(CCCO)c3ncnc(N)c23)cc1 — remaining binding (cell-free assay, competition with immobilised ligand; 1 µM): 97%
COc1cc(Nc2nc(C)cc(-c3cnn4nc(OC)ccc34)n2)cc(C(F)(F)F)c1 — remaining activity (inhibitor; 1 µM, ERK5; baseline: control): 83%
CNC1C[S+]2CC[S+]3CC[S+](C1)[Ru-4]321([N]=C=S)[n]2c3ccc(OC)cc3c3c4c(c5cc(F)c[n+]1c5c32)C(=O)NC4=O (stereo not drawn) — remaining binding (KinomeScan; 0.1 µM; baseline: untreated): 45%
Nc1ncc(-c2cc(-c3cnn(CC(F)(F)F)c3)ncc2F)nc1C(=O)NC1CNCC(F)C1 (stereo not drawn) — remaining activity (enzyme activity; 1 µM; baseline: DMSO control): 95.3%
C=CC(=O)Nc1cc(-c2nn(C3CCN(CCNC(=O)[C@H](C)CCC45CC6CC(CC(C6)C4)C5)CC3)c3ncnc(N)c23)ccc1Oc1ccccc1 — inhibition (inhibitor, KiNativ profiling; biochemical; 2 µM): 16.3%
CS(=O)(=O)Nc1cccc(-c2csc3cnc(Nc4ccc(N5CCN(CCCCCOc6cccc7c6C(=O)N(C6CCC(=O)NC6=O)C7=O)CC5)cc4)nc23)c1 (stereo not drawn) — inhibition (probe labelling, inhibitor, KiNativ chemoproteomics; MOLT-4; 1 µM): 30.1%
NC(=O)C[C@H]1CCc2sc3ncnc(O[C@H]4CC[C@H](N5CCOCC5)CC4)c3c21 — inhibition (enzyme activity, inhibitor; 10 µM): 3%
C[C@]1(O)CCCN(c2nc(Nc3ccc(S(=O)(=O)N[C@H]4CC[C@H](CN5CCN(c6ccc(C7CCC(=O)NC7=O)cc6F)CC5)CC4)cc3)ncc2C(F)(F)F)C1 (stereo partly drawn) — remaining binding (binding, competition with immobilised ligand; 1 µM): 9.1%
CNC(=O)C1CCN(c2cc(C)c(F)cc2NC(=O)c2ccc(-c3cc(O)ccc3C)c(C)c2)CC1 — remaining binding (binding, competition with immobilised ligand; 1 µM): 100%
COc1cc(Nc2nccc(-c3cnn4nc(OC)ccc34)n2)cc(C(F)(F)F)c1 — remaining binding (binding, competition with immobilised ligand; 1 µM): 98%
C=CC(=O)N1Cc2nc(-c3cc(-c4cc(Cl)cnc4Cl)c(F)cc3F)n(-c3ccncn3)c2C1 — inhibition (cell-free assay, inhibitor; 1 µM): 10.8%
NC(=O)[C@@H](O)C[C@H]1CCc2sc3ncnc(O[C@H]4CC[C@H](N5CCOCC5)CC4)c3c21 — inhibition (enzyme activity, inhibitor; 10 µM): 3%

A few entries again:
CCn1cc(C(=O)O)c(=O)c2c(N)c(F)c(NC3CCCCC3)cc21 — inhibition (kinase activity; 0.1 µM, added: ATP at Km): 6.6%
NC(=O)[C@@H](O)C[C@H]1CCc2sc3ncnc(O[C@H]4CC[C@H](N5CCOCC5)CC4)c3c21 — inhibition (enzyme activity, inhibitor; 10 µM): 3%
C=CC(=O)Nc1cc(-c2nn(C3CCN(CCNC(=O)[C@H](C)CCC45CC6CC(CC(C6)C4)C5)CC3)c3ncnc(N)c23)ccc1Oc1ccccc1 — inhibition (inhibitor, KiNativ profiling; biochemical; 2 µM): 16.3%
